Assay results of several laboratories.
A part holds a random share of what one study measured. ± marks the error that the study gave.

Set 1
Organism: SARS-CoV-2 Wuhan spike VSV pseudovirus
Observed: pseudovirus entry
Tested at: concentration not given
Structure (SMILES)	inhibition [%]
Cc1c(C(=O)OCC(=O)NC(=O)NCc2ccco2)oc2c1ccc1ccccc12	41
O=C(C1CCCCC1)N1C[C@@H](CO)[C@H](c2ccncc2)C1	41
CNS(=O)(=O)CCNCC1(O)CCCN(Cc2cccc(C)c2)C1=O (stereo not drawn)	40
Nc1nc(NCCNc2ccccc2)cc(N2CCOCC2)n1	41
CCCS(=O)(=O)c1ncc(Cl)c(C(=O)Nc2cccc(C(F)(F)F)c2)n1	43
Cc1oc2ncnc(N3CCC(C(=O)NCCc4cccs4)CC3)c2c1C	38
Nc1cccc(S(=O)(=O)c2cccc(N)c2)c1	41
CC1CCN(CCCNC(=O)c2ccc(-c3cc(N4CCCC4)ncn3)cc2)CC1	41
N#CCSc1ccccc1NC(=O)Cn1ncc(Cl)c(Cl)c1=O	45

Mixed results
rep papain-like protease: Replicase polyprotein 1ab, papain-like protease (rep, Severe acute respiratory syndrome coronavirus 2, UniProt P0DTD1)
rep nsp12 RdRp: Replicase polyprotein 1ab, nsp12 RdRp (rep, Severe acute respiratory syndrome coronavirus 2, UniProt P0DTD1)
rep nsp14: Replicase polyprotein 1ab, nsp14 (rep, Severe acute respiratory syndrome coronavirus 2, UniProt P0DTD1)
SMILES	target or system	test	test system	conditions	scale	measurement	result
COc1nc(N)nc2c1ncn2[C@@H]1O[C@H](CO)[C@@H](O)[C@@H]1O	SARS-CoV-2	viral replication	Vero C1008, Omicron BA.1	48 h, reduction of infectious virus	–	EC90	6.42 ± 0.19 µM
O=C(Nc1cc(C(F)(F)F)ccc1N1CCCCC1)c1ccncc1	rep papain-like protease	–	–	concentration not given, C111S mutant	relative to: positive control	activity	28.3%
NC(=O)c1ccc[n+]([C@@H]2O[C@H](COP(=O)([O-])OP(=O)(O)OC[C@H]3O[C@@H](n4cnc5c(N)ncnc54)[C@H](O)[C@@H]3O)[C@@H](O)[C@H]2O)c1	rep nsp12 RdRp	binding, biolayer interferometry	–	concentration not given	–	BLI response	-0.01 nm
CCC(CC)[C@H](NC(C)=O)[C@@H]1[C@H](O)[C@@H](C(=O)O)C[C@H]1N=C(N)N	neuraminidase (Influenza B virus, UniProt A0A1S5RAG6, I221L)	–	–	–	–	IC50	0.0206 ± 0.003 µM
O=C(NC1CCN(c2ncnc3[nH]cnc23)CC1)c1cccc(S(=O)(=O)N2CCCC2)c1	rep nsp14	NSP14 enzyme activity, inhibitor	–	3.125 µM	–	inhibition	33.6%
N#C[C@@]1(n2ccc(N)nc2=O)O[C@H](CO)[C@@H](O)[C@H]1O	SARS-CoV-2	viral replication	Calu-3, Gamma	–	–	EC90	4.6 ± 0.2 µM
CN1CCc2nc(C(=O)N[C@@H]3C[C@@H](C(=O)N(C)C)CC[C@@H]3NC(=O)C(=O)Nc3ccc(Cl)cn3)sc2C1	rep papain-like protease	–	–	concentration not given, C111S mutant	relative to: positive control	activity	22.4%
C[S+](CC[C@H](N)C(=O)[O-])C[C@H]1O[C@@H](n2cnc3c(N)ncnc32)[C@H](O)[C@@H]1O (stereo partly drawn)	rep nsp14	thermal shift	–	500 µM	–	ΔTm	1.8 °C
C[C@@H]1O[C@@H](OC[C@H]2O[C@@H](Oc3cc(O)c4c(=O)cc(-c5ccc(O)cc5)oc4c3)[C@H](O[C@@H]3O[C@@H](C)[C@H](O)[C@@H](O)[C@H]3O)[C@@H](O)[C@@H]2O)[C@H](O)[C@H](O)[C@H]1O	rep nsp12 RdRp	binding, biolayer interferometry	–	50 µM	–	BLI response	0.04 nm

Repeated from above (set 1):
Structure (SMILES)	inhibition [%]
Nc1nc(NCCNc2ccccc2)cc(N2CCOCC2)n1	41
CCCS(=O)(=O)c1ncc(Cl)c(C(=O)Nc2cccc(C(F)(F)F)c2)n1	43
Cc1oc2ncnc(N3CCC(C(=O)NCCc4cccs4)CC3)c2c1C	38
